Results collected from several papers.
Each line is one published result; not all experiments were run side by side. Numbers after ± are the reported error.

| Structure (SMILES) | test | test system | conditions | how to read | measurement | result |
| --- | --- | --- | --- | --- | --- | --- |
| CC[C@@]1(O)C(=O)OCc2c1cc1n(c2=O)Cc2cc3c(CN(C)C)c(O)ccc3nc2-1 | – | human patients, plasma | oral, 2.5 mg daily for 5 days, MTD arm, daily dosing, added: pazopanib | reference: with pazopanib over alone | half-life ratio | 0.83 |
| CC(C)C[C@@H]1NC(=O)[C@@H]2CSSC[C@@H](C(=O)NCC(N)=O)NC(=O)[C@H](Cc3ccccc3)NC(=O)CNC(=O)[C@H](CC(N)=O)NC(=O)[C@@H]3CCCN3C(=O)CNC(=O)[C@@H]3CSSC[C@H](NC(=O)[C@H](CO)NC(=O)[C@H]([C@@H](C)O)NC(=O)[C@@H]4CCCN4C(=O)[C@H](C)NC(=O)[C@H](Cc4c[nH]c5ccccc45)NC(=O)[C@H](CC(=O)O)NC(=O)CNC(=O)[C@H](CCCNC(=N)N)NC(=O)CNC(=O)[C@H](CCC(N)=O)NC(=O)[C@@H]4CCCN4C(=O)[C@@H](NC(=O)CNC(=O)c4ccc(F)cc4)CSSC[C@H](NC(=O)CNC(=O)[C@H](C)NC1=O)C(=O)N[C@@H](C(C)C)C(=O)N3)C(=O)N[C@@H](CO)C(=O)N[C@@H](CCC(N)=O)C(=O)N[C@@H](CC(=O)O)C(=O)N[C@@H](CO)C(=O)N[C@@H](CC(=O)O)C(=O)N2 [fluorine-18 labelled] | dynamic microPET | nude mouse, U-87 MG xenograft, tumour | intravenous, 3.7 MBq, 5 min | – | maximum tumour uptake | 3.5 %ID/g |
| CN[C@H](CC(C)C)C(=O)N[C@H]1C(=O)N[C@@H](CC(N)=O)C(=O)N[C@H]2C(=O)N[C@H]3C(=O)N[C@H](C(=O)N[C@H](C(=O)O)c4cc(O)cc(O)c4-c4cc3ccc4O)[C@H](O)c3ccc(c(Cl)c3)Oc3cc2cc(c3O[C@@H]2O[C@H](CO)[C@@H](O)[C@H](O)[C@H]2O[C@H]2C[C@](C)(N)[C@H](O)[C@H](C)O2)Oc2ccc(cc2Cl)[C@H]1O | – | perfused placental lobule tissue | 25 µg/mL, 240 min | – | tissue concentration | 7.5 ± 1 µg/g |
| CCc1cccc(C)c1N(C(=O)CCl)C(C)COC (stereo not drawn) | LC-MS/MS | herbicide solution | 2 h, 23 °C, added: 365 nm UV exposure | – | remaining amount | 68 ± 6.27% |
| c1cc2ccc3cccc4ccc(c1)c2c34 | HPLC-fluorescence | Wistar rat, male, colon | oral, 4 mg/kg, 24 h | – | tissue concentration | 0.0375 ± 0.0138 µg/g |
| O[C@H]1CCCN[C@@H]1CCCn1cnc2c(Cl)c(Cl)ccc21 | – | healthy human volunteers, plasma | oral, 200 mg twice daily, day 14, median | – | Tmax at steady state | 2 h |
| CNC(=O)c1ccc(-c2cnn3ccc(C(=O)N(C)c4ccc(Cl)c(C(=O)OC)c4)cc23)cc1 | – | rat, Wistar or Sprague Dawley, male, plasma, hepatic portal vein | oral, 100 mg/kg | – | AUC | 1.61 µM·h |
| Cc1c(P(=S)(c2ccccc2)c2ccccc2)n2ccccc2[n+]1C/C=C/c1ccccc1 | – | mouse, brain | intraperitoneal, 10 mg/kg, 1 h | – | concentration | 21 ng/g |
| CN[C@@](C)(C[18F])C(=O)O | – | SCID mouse SK-OV-3 xenograft, brain | 15 min, post injection | – | tissue uptake | 0.3 ± 0.1 %ID/g |
| C=C(C)[C@@H]1CC[C@]2(NCCN3CCS(=O)(=O)CC3)CC[C@]3(C)[C@H](CC[C@@H]4[C@@]5(C)CC=C(C6=CC[C@@](CF)(C(=O)O)CC6)C(C)(C)[C@@H]5CC[C@]43C)[C@@H]12 | – | human, serum | 50 mg multiple dose, day 16 | – | peak ALT | 83 IU/L |
| c1cc([C@H]2CC[C@]3(CC2)OO[C@]2(O3)C3CC4CC(C3)CC2C4)ccc1OCCN1CCOCC1 | – | human, plasma | oral, 200 to 800 mg once daily, 24 h post-dose on day 3 of 3 days, multiple rising dose | – | plasma concentration | > 20 ng/mL |
| CC1(C)S[C@@H]2[C@H](NC(=O)[C@H](C(=O)O)c3ccsc3)C(=O)N2[C@H]1C(=O)O | – | rat plasma | 2400 ng/mL, 24 h, room temperature, short-term stability | reference: nominal concentration | relative error | -2.1% |

For quick reference, copied from above:
| Structure (SMILES) | test | test system | conditions | how to read | measurement | result |
| --- | --- | --- | --- | --- | --- | --- |
| C=C(C)[C@@H]1CC[C@]2(NCCN3CCS(=O)(=O)CC3)CC[C@]3(C)[C@H](CC[C@@H]4[C@@]5(C)CC=C(C6=CC[C@@](CF)(C(=O)O)CC6)C(C)(C)[C@@H]5CC[C@]43C)[C@@H]12 | – | human, serum | 50 mg multiple dose, day 16 | – | peak ALT | 83 IU/L |
